# Experimental data pooled from the literature.
# Compare with care: the assays were run in different laboratories.
Structure (SMILES),tested on,test,test system,conditions,scale,quantity,result
Nc1ncc(-c2cc(-c3cnn(CC(F)(F)F)c3)ncc2F)nc1C(=O)NC1CNCC(F)C1 (stereo not drawn),CAMK1D,KINOMEscan,,1 µM,reference: DMSO control,remaining binding,68%
O=C(CC(=O)Nc1ccc2c(/C=C/c3ccccn3)n[nH]c2c1)Nc1ccc(Cl)c(C(F)(F)F)c1,Ba/F3 TEL-VEGFR3,"cell growth, CCK-8",,,,GI50,1.2 µM
C=CC(=O)Nc1cccc(Cn2ncc3cnc(Nc4cnn(CCOC)c4)nc32)c1,EPHB2 human,"binding, KINOMEscan",,100 nM,lower = stronger binding,percent of control,87%
CSc1cc(C)[nH]c(=O)c1CNC(=O)c1cc(Cl)c2c(c1C)OC(C)(C1CCC(N(C)C)CC1)O2 (stereo not drawn),KARPAS-422,cell growth or viability,,8 days,,GI50,0.004 µM
COc1ccc(NC(=O)c2ccc3[nH]c(-c4ccc(N(C)C)cc4)nc3c2)cn1,Y79,"cell growth, CellTiter-Glo",,,,GI50,6.89 µM
Cc1cccc(NC(=O)CC(=O)Nc2ccc3[nH]nc(/C=C/c4ccccn4)c3c2)c1,Ba/F3 TEL-VEGFR2,"cell growth, CCK-8",,,,GI50,0.18 µM
CSc1cc(C)[nH]c(=O)c1CNC(=O)c1c(C)n(C(C)C2CCC(NC3(C)COC3)CC2)c2ccccc12 (stereo not drawn),KARPAS-422,cell growth or viability,,8 days,,GI50,0.011 µM
COc1cccc(C(=O)Nc2ccc(Sc3ccc4c(/C=C/c5ccccn5)n[nH]c4c3)cc2)c1,Ba/F3 TEL-VEGFR3,"cell growth, CCK-8",,,,GI50,> 10 µM
COC1CN([C@H]2CC[C@H]([C@@]3(C)Oc4c(Cl)cc(C(=O)NCc5c(SC)cc(C)[nH]c5=O)c(C)c4O3)CC2)C1,,"RNA-seq, refers to: ACP3 mouse homolog","mouse, HT-1376 xenograft, whole blood",dose not given,reference: vehicle,log2 fold change,0.539
Cc1ncsc1-c1ccc(C(C)NC(=O)C2CC(O)CN2C(=O)C(NC(=O)CCCCCCCCCCN2CCCC(Nc3ncc(Cl)c(Nc4ccccc4S(=O)(=O)C(C)C)n3)C2)C(C)(C)C)cc1 (stereo not drawn),22Rv1,"RNA-seq, refers to: TTC30A mRNA",,concentration not given,reference: DMSO,log2 fold change,-1.62
CCN(C(=O)c1cc(F)ccc1Oc1nncnc1N1CCC2(C1)CN([C@H](CCCN(C)CCOC)C(C)C)C2)C(C)C,PLC-PRF-5,cell growth or viability,,72 h,,GI50,> 10 µM
N#C[Se]CCCCCCOc1ccc2c(-c3ccccc3)cc(=O)oc2c1,SW1573,"cell growth or viability, SRB",,,,GI50,4.7 µM
C=C(NC(=O)c1csc(-c2nc3c(cc2O)-c2nc(cs2)C(=O)NC(C(C)O)C(=O)NC(=C(C)OC)c2nc(cs2)C(=O)NC2c4nc(cs4)C(=O)NC(COC(=O)c4c5c6c(cccc6n4O)COC(=O)C(OC4CC(C)(O)C(N(C)C)C(C)O4)C2OC5)c2nc-3cs2)n1)C(N)=O (stereo not drawn),,,"ICR mice, Streptococcus pneumoniae ATCC 49169 infected, immunocompromised, blood","intravenous, 4 mg/kg/day twice daily",,AUC(0-t),0.224 µg·h/mL
O=C(CCl)c1ccccc1Nc1cccc(C(F)(F)F)c1,NCI-H28,"cell growth or viability, CCK-8",,72 h,,GI50,1.91 µM
Cc1c(Cl)c(=O)oc2cc(OCCCCCCSC#N)ccc12,SW1573,"cell growth or viability, SRB",,,,GI50,13 µM

# Repeated from above:
Structure (SMILES),tested on,test,test system,conditions,scale,quantity,result
O=C(CC(=O)Nc1ccc2c(/C=C/c3ccccn3)n[nH]c2c1)Nc1ccc(Cl)c(C(F)(F)F)c1,Ba/F3 TEL-VEGFR3,"cell growth, CCK-8",,,,GI50,1.2 µM
Cc1cccc(NC(=O)CC(=O)Nc2ccc3[nH]nc(/C=C/c4ccccn4)c3c2)c1,Ba/F3 TEL-VEGFR2,"cell growth, CCK-8",,,,GI50,0.18 µM
